{"data": "Assay results of several laboratories", "note": "Parts stem from different laboratories: compare values within a part only."}
{"data": "Set 1", "target": "Interferon regulatory factor 5, full length, phosphomimetic (IRF5, Homo sapiens, UniProt Q13568-2, residues 1-514, K96S/S451D/S453D/S456D/S462D)", "method": "protein-binding microarray", "form": "double-stranded DNA, one strand shown", "medium": "in vitro", "tested at": "250 nM", "setting": "60-bp whole probe", "with": "salmon DNA 0.4 mg/ml", "reference": "random background probes", "reading": "higher = stronger binding"}
{"Sequence": "GCCTAGCACCAGGTTTTGCTAAGTCAACTGGTGCTAGTCTTGATTCGCTTGACGCTGCTG", "log fluorescence": "0.315 z-score"}
{"Sequence": "GCCTAGCACTCATCTATCTCTGTTTTACTGTGCTAGGTCTTGATTCGCTTGACGCTGCTG", "log fluorescence": "1.04 z-score"}
{"Sequence": "GCCTAGCACAGTATGTTCCCTATTTAAGGGTGCTAGGTCTTGATTCGCTTGACGCTGCTG", "log fluorescence": "0.307 z-score"}
{"Sequence": "GCCTAGCACGACGAAATGAGTCTCGAGACGTGCTAGGTCTTGATTCGCTTGACGCTGCTG", "log fluorescence": "0.567 z-score"}
{"data": "Set 2", "target": "TAR DNA-binding protein 43, full length, His tag (TARDBP, Homo sapiens, UniProt Q13148, residues 1-414)", "method": "RNA Bind-n-Seq", "form": "RNA", "medium": "in vitro", "tested at": "20 nM", "setting": "6-mer, flanks averaged, single round", "with": "150 mM KCl", "reference": "input library", "reading": "higher = stronger binding"}
{"Sequence": "CUGAGC", "6-mer enrichment (R)": 0.794}
{"Sequence": "AAGUUC", "6-mer enrichment (R)": 0.549}
{"Sequence": "UUGUAU", "6-mer enrichment (R)": 0.742}
{"Sequence": "GCGGUC", "6-mer enrichment (R)": 1.34}
{"Sequence": "GUGCUA", "6-mer enrichment (R)": 0.844}
{"data": "Set 3", "target": "Prothrombin, mature alpha-thrombin (F2, Homo sapiens, UniProt P00734)", "method": "aptamer microarray, sandwich", "form": "DNA with 2'F-ANA", "medium": "in vitro", "tested at": "200 nM", "setting": "whole 15-mer aptamer, many near background", "with": "Cy3 exosite-II aptamer, 400 nM", "reading": "higher = stronger binding"}
{"Sequence": "GGTTGGTGTGGTTGG (2'F-ANA at 4 5 8 9 12 13 14)", "mean fluorescence intensity [a.u.]": 81.2}
{"Sequence": "GGTTGGTGTGGTTGG (2'F-ANA at 3 6 7 10 12 13 14)", "mean fluorescence intensity [a.u.]": 391}
{"Sequence": "GGTTGGTGTGGTTGG (2'F-ANA at 6 12 13 14)", "mean fluorescence intensity [a.u.]": 200}
{"Sequence": "GGTTGGTGTGGTTGG (2'F-ANA at 1 2 5 6 9 10 11)", "mean fluorescence intensity [a.u.]": 57.5}
{"data": "Mixed results"}
{"Molecule": "PhoQ, residues 284 288 289 292 302 303 AQGLTV", "target": "PhoP, residues 12 14 15 18 19 NNFVT (Escherichia coli, UniProt P23836)", "test": "Sort-seq, item: YFP reporter", "system": "E. coli", "conditions": "PhoQ-PhoP variant library, with: 10 µM Mg2+", "scale": "reference: high Mg2+ state, higher = stronger signaling", "measurement": "fold induction", "result": 6.35}
{"note": "Some of these lines once more (set 3):"}
{"Sequence": "GGTTGGTGTGGTTGG (2'F-ANA at 6 12 13 14)", "mean fluorescence intensity [a.u.]": 200}
